Experimental data gathered from unrelated publications.
Values joined by “and” are separate records of one study, mostly repeats; a detail may differ. Numbers after ± are the reported error.

SMILES	assay	test system	conditions	scale	quantity	result
CN1CCC[C@]1(C)/C=C/S(=O)(=O)NC(=O)Nc1c2c(cc3c1CCC3)CCC2		human, whole blood ex vivo	12.5 mg twice daily, day 1, 3 h, multiple ascending dose, with: LPS and ATP		IL-1β inhibition	98.4%
Cc1cc(OCCOCCn2ccnc2)cc(C(C)C)c1	locomotor activity in dark	zebrafish larvae, 7 dpf	10 µM, minute 3, dark phase		larval motion	0.8 ± 0.5 pixels/frame
O=S(=O)(NCc1ccncc1)c1ccc(C2CCCCC2)cc1	immunohistochemistry	CK-p25 mice male, hippocampus	ip, 0.1 mg/kg daily, 2 wk	baseline: vehicle	GFAP area reduction	~46%
Cc1cn(CC(=O)N(CC(=O)N[C@H]2COC[C@@H]2N(CC(=O)NCCOCCOCC(N)=O)C(=O)Cn2cnc3c(N)ncnc32)[C@H]2COC[C@@H]2NC(=O)CN(C(=O)Cn2cnc3c(N)ncnc32)[C@H]2COC[C@@H]2NC(=O)CN(C(=O)Cn2cnc3c(=O)[nH]c(N)nc32)[C@H]2COC[C@@H]2NC(=O)CN(C(=O)Cn2cc(C)c(=O)[nH]c2=O)[C@H]2COC[C@@H]2NC(=O)CN(C(=O)Cn2cnc3c(=O)[nH]c(N)nc32)[C@H]2COC[C@@H]2NC(=O)CN(C(=O)Cn2cc(C)c(=O)[nH]c2=O)[C@H]2COC[C@@H]2NC(=O)CN(C(=O)Cn2cnc3c(N)ncnc32)[C@H]2COC[C@@H]2NC(=O)CN(C(=O)Cn2cnc3c(=O)[nH]c(N)nc32)[C@H]2COC[C@@H]2N)c(=O)[nH]c1=O	UV melting	DNA duplex with T·G mismatch	pH 7.2, 1 µM each strand		Tm	55.6 °C
CCCCCCCCCCCCCCCC(=O)OCC(CSC[C@H](N)C(=O)N[C@@H](CO)C(=O)N[C@@H](CCCCN)C(=O)N[C@@H](CCCCN)C(=O)N[C@@H](CCCCN)C(=O)N[C@@H](CCCCN)C(=O)NCCCCCC(=O)N[C@@H](CCCCN)C(=O)N[C@@H](CC(C)C)C(=O)N[C@H](C(=O)N[C@@H](Cc1ccccc1)C(=O)N[C@@H](Cc1ccccc1)C(=O)N[C@@H](Cc1ccc2ccccc2c1)C(=O)O)C(C)C)OC(=O)CCCCCCCCCCCCCCC (stereo partly shown)	thioflavin S staining, item: amyloid-beta plaque	APP/PS1 transgenic mouse, cortex	intracortical injection, dose not given		plaque density	58.9 /mm2 and 89.4 /mm2 and 83 /mm2
Cc1cccc(C)c1CNc1cc(C(=O)N2CCC2)cn2c(C)c(C)nc12	histamine-stimulated acid secretion	pylorus-ligated rat	oral, 2 mg/kg, with: histamine		total acid output	34.4 ± 8.1 µEq/3 h
Cc1cn(CC(=O)N(CC(=O)N[C@H]2CCC[C@@H]2N(CC(=O)N[C@H]2COC[C@@H]2N(CC(=O)N[C@H]2COC[C@@H]2N(CC(=O)N[C@H]2COC[C@@H]2N(CC(=O)NCCOCCOCC(N)=O)C(=O)Cn2cnc3c(N)ncnc32)C(=O)Cn2cc(C)c(=O)[nH]c2=O)C(=O)Cn2cnc3c(N)ncnc32)C(=O)Cn2cnc3c(=O)[nH]c(N)nc32)[C@H]2CCC[C@@H]2NC(=O)CN(C(=O)Cn2cnc3c(=O)[nH]c(N)nc32)[C@H]2CCC[C@@H]2NC(=O)CN(C(=O)Cn2cc(C)c(=O)[nH]c2=O)[C@H]2COC[C@@H]2NC(=O)CN(C(=O)Cn2cnc3c(N)ncnc32)[C@H]2COC[C@@H]2NC(=O)CN(C(=O)Cn2cnc3c(=O)[nH]c(N)nc32)[C@H]2COC[C@@H]2N)c(=O)[nH]c1=O	UV melting	DNA duplex with T·T mismatch	pH 7.2, 1 µM each strand		Tm	65 °C
COc1cnc2cccc(N3CCc4c(cc(Cn5ccnc5)cc4-c4cn(C)nc4C(F)(F)F)C3=O)c2c1		BALB/c nude mice, MV4-11 xenograft	intraperitoneal, 75 mg/kg, day 14		tumour volume	174 mm3 and 156 mm3 and 201 mm3 and 233 mm3 and 136 mm3
CCC(=O)N[C@@H](C)C(=O)OCC(=O)N[C@@H](C)C(=O)O		water	pH 6, 37 °C		chain scission rate constant	0.0016 h⁻¹
Cc1cc(NC(=O)CCN2CCCCC2)ccc1Br		zebrafish larvae, 7 dpf	10 µM, minute 2		larval motion	17.3 ± 2.1 pixels/frame
CC(C)C[C@H](NC(=O)CNC(=O)[C@H](CCC(N)=O)NC(=O)[C@H](CC(C)C)NC(=O)[C@H](CC(C)C)NC(=O)[C@H](CCCNC(=N)N)NC(=O)[C@H](CCC(N)=O)NC(=O)[C@H](CC(C)C)NC(=O)[C@H](CCCNC(=N)N)NC(=O)[C@H](C)NC(=O)CNC(=O)[C@H](CCC(=O)O)NC(=O)[C@H](CCCNC(=N)N)NC(=O)[C@H](CC(C)C)NC(=O)[C@H](CCCNC(=N)N)NC(=O)[C@H](CO)NC(=O)[C@H](CC(C)C)NC(=O)[C@H](CCC(=O)O)NC(=O)[C@H](CO)NC(=O)[C@@H](NC(=O)[C@H](Cc1ccccc1)NC(=O)[C@@H](NC(=O)CNC(=O)[C@H](CC(=O)O)NC(=O)C(C)(C)NC(=O)[C@@H](N)Cc1c[nH]cn1)[C@@H](C)O)[C@@H](C)O)C(=O)N[C@@H](CC(C)C)C(=O)N[C@@H](CCC(N)=O)C(=O)NCC(=O)N[C@@H](CC(C)C)C(=O)N[C@H](C(=O)NCC(=O)N[C@@H](CCCCNC(=O)COCCOCCNC(=O)COCCOCCNC(=O)CC[C@H](NC(=O)CCCCCCCCCCCCCCCCC(=O)O)C(=O)O)C(N)=O)C(C)C		DIO C57BL/6J mice	dose not given, day 28, 2 h fasted, with: GLP-1R agonist co-treatment		fasting blood glucose	increased
O=C(CCN1CCN(C/C=C/c2ccccc2)CC1)Nc1ccc2c(c1)CCC2		zebrafish larvae, 7 dpf	10 µM, minute 4		larval motion	16.2 ± 2.1 pixels/frame
Cc1cnc2nc1Nc1cccc(c1)COC/C=C/COCc1cc(ccc1OCCN1CCOCC1)N2		BALB/c mice rhEPO-induced polycythemia, spleen	100 mg/kg		CD71/Ter119 cells	15.1% and 14.6% and 13.6% and 13.4% and 11.5% and 11.6%
COC1CN([C@H]2CC[C@H]([C@@]3(C)Oc4c(Cl)cc(C(=O)NCc5c(SC)cc(C)[nH]c5=O)c(C)c4O3)CC2)C1	RNA-seq, item: CYSTM1 mouse homolog	mouse, HT-1376 xenograft, whole blood	dose not given	baseline: vehicle	log2 fold change	5.05
CN(C)C(=O)c1ccnc(N2Cc3cn(Cc4ccc(F)cc4F)nc3C2)n1		mouse, hippocampal slice, Schaffer collaterals	dose not given, interstimulus interval 100	baseline: second over first response	paired-pulse ratio	1.44 and 1.6 and 1.61 and 1.64 and 1.56 and 2.37 and 1.57
CC(=O)[O-].O.O.O.O.[Ni+2].[O-]c1ccc(Br)cc1C=NCCN1CCOCC1	nitric oxide scavenging		200 µM		inhibition	42.9%

SMILES	assay	test system	conditions	scale	quantity	result
CCCCCc1ccc(S(=O)(=O)N2CC2C(=O)OC)cc1 (stereo not shown)		mouse, Lewis lung carcinoma	intraperitoneal, 5 mg/kg, 16 doses, day 16		tumour volume	626 mm3
COc1cc2c(cc1OC)C1Cc3ccc(OC)c(OC)c3C[NH+]1CC2.[Cl][Fe-]([Cl])([Cl])[Cl] (stereo not shown)			1.0 mg/mL, 30 min, 25 °C		DPPH scavenging	46.9%
C[C@@H]1CN(c2ccnc(C(=O)N[C@H]3C[C@@H]3c3ccccc3)c2)CC[C@@H]1O		female heterozygous SLC6A8 P549L mice, right hippocampus	oral, 30 mg/kg twice daily, 8 h		creatine concentration	1140 µg/mL and 764 µg/mL and 802 µg/mL
CO.COc1ccc2c(c1)c(CC(=O)[O-])c(C)n2C(=O)c1ccc(Cl)cc1.COc1ccc2c(c1)c(CC(=O)[O-])c(C)n2C(=O)c1ccc(Cl)cc1.O.[Co+2].c1ccc(Nc2ccccn2)nc1	DPPH	methanol	concentration not given, 60 min		DPPH radical scavenging	10.4 ± 0.79%
Cc1cn(CC(=O)N(CCNC(=O)CN(CCNC(=O)CN(CCNC(=O)CN(CCNC(=O)CN(CCNC(=O)CN(CCNC(=O)CN(CCNC(=O)CN(CCN)C(=O)Cn2cnc3c(=O)[nH]c(N)nc32)C(=O)Cn2cnc3c(N)ncnc32)C(=O)Cn2cc(C)c(=O)[nH]c2=O)C(=O)Cn2cnc3c(=O)[nH]c(N)nc32)C(=O)Cn2cc(C)c(=O)[nH]c2=O)C(=O)Cn2cnc3c(=O)[nH]c(N)nc32)C(=O)Cn2cnc3c(N)ncnc32)CC(=O)NCCN(CC(=O)NCCOCCOCC(N)=O)C(=O)Cn2cnc3c(N)ncnc32)c(=O)[nH]c1=O	UV melting	DNA duplex with T·T mismatch	pH 7.2, 1 µM each strand		Tm	28.2 °C
O=C(CCN1CCN(C/C=C/c2ccccc2)CC1)Nc1ccccc1		zebrafish larvae, 7 dpf	10 µM, minute 4		larval motion	12.3 ± 1.7 pixels/frame
COc1ccc(C(=O)CCc2cc(C(CCc3ccc(O)cc3OC)c3ccc(O)cc3)c(O)cc2OC)cc1 (racemic)		human blood	1 µM, with: A23187		14-HDHA level	715 ± 180 pg/mL
Cc1cc(OCCOCCN(C)C)cc(C(C)C)c1		zebrafish larvae, 7 dpf	10 µM, minute 4		larval motion	11.2 ± 1.3 pixels/frame
COc1ccccc1C(C[N+](=O)[O-])c1c(-c2ccccc2)[nH]c2ccccc12 (stereo not shown)	mechanical allodynia, von Frey	mice, CFA inflammatory pain	dose not given, 6 h, highest dose		maximal possible effect	75%
Cc1cc(C(C)(C)C)ccc1OCCOCCN(C)C	locomotor activity in dark	zebrafish larvae, 7 dpf	10 µM, minute 7, dark phase		larval motion	12.2 ± 0.8 pixels/frame
COc1cc(O)ccc1CCC(c1ccc(O)cc1)c1cc2c(c(C)c1O)OC(c1ccc(O)cc1)CC2 (mixture of isomers)	item: PGD2	human whole blood	0.3 µM, with: Escherichia coli		amount	135 ± 64 pg/mL blood
CCc1cc(OCCOCCN(C)C)ccc1Cl	locomotor activity in dark	zebrafish larvae, 7 dpf	10 µM, minute 3, dark phase		larval motion	2.3 ± 1.2 pixels/frame
COc1cc(N2CCN(C(=O)C3CCCN3)CC2)ccc1Nc1ncc(Cl)c(Nc2ccccc2P(C)(C)=O)n1 (stereo not shown)		nude mice, NCI-H3122 xenograft	intraperitoneal, 10 mg/kg every other day, day 13		tumour volume	59.2 mm3 and 74.9 mm3 and 107 mm3 and 77.1 mm3 and 81.5 mm3
CN(C)CCOCCOc1ccc(Cl)c(Cl)c1	locomotor activity in dark	zebrafish larvae, 7 dpf	10 µM, minute 1, dark phase		larval motion	2.3 ± 1 pixels/frame
CC(C)c1cnc(-c2cc(Cl)ccc2F)cc1Nc1ccncc1C(=O)NC(CO)CO		mice, MC-38 tumour, tumour	10 mg/kg twice daily, 96 h, 4 day, then holiday, ×7	baseline: CD45+	CD8+ T cells	7.64%
